Results pooled from the literature.
Each numbered part is a random draw from the data of one study; scales do not carry over between parts. “And” joins repeats or separate records; there may be more than shown.
Chain of UniProt P36897 (whole entry, looked up): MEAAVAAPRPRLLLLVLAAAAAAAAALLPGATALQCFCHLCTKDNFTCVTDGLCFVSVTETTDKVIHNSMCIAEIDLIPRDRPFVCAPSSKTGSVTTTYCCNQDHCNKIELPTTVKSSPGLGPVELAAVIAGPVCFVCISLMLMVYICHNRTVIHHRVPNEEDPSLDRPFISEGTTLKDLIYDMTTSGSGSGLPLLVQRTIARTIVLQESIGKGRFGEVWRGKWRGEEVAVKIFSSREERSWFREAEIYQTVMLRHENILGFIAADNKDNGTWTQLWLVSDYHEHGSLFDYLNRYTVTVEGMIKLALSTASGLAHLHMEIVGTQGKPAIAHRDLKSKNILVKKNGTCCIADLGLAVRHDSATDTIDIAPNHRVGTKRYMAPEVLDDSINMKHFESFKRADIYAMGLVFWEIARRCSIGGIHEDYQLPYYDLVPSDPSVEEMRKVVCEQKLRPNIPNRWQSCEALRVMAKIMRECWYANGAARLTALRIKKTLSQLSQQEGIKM
Chain of UniProt O15530 (whole entry, looked up): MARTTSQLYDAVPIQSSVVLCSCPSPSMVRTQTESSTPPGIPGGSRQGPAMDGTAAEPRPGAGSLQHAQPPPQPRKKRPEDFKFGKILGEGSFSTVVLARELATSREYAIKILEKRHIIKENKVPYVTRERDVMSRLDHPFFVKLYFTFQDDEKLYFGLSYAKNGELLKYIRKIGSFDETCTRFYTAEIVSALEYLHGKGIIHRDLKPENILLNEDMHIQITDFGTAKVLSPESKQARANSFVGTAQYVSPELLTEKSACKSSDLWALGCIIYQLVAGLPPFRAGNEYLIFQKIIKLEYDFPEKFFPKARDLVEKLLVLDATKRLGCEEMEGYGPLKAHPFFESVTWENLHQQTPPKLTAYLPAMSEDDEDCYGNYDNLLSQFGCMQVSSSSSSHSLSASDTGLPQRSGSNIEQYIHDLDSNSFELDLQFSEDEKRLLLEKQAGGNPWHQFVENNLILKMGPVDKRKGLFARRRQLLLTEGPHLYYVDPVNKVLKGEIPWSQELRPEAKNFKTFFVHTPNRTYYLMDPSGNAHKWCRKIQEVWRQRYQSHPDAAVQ
Chain of UniProt Q8NEV4 (whole entry, looked up): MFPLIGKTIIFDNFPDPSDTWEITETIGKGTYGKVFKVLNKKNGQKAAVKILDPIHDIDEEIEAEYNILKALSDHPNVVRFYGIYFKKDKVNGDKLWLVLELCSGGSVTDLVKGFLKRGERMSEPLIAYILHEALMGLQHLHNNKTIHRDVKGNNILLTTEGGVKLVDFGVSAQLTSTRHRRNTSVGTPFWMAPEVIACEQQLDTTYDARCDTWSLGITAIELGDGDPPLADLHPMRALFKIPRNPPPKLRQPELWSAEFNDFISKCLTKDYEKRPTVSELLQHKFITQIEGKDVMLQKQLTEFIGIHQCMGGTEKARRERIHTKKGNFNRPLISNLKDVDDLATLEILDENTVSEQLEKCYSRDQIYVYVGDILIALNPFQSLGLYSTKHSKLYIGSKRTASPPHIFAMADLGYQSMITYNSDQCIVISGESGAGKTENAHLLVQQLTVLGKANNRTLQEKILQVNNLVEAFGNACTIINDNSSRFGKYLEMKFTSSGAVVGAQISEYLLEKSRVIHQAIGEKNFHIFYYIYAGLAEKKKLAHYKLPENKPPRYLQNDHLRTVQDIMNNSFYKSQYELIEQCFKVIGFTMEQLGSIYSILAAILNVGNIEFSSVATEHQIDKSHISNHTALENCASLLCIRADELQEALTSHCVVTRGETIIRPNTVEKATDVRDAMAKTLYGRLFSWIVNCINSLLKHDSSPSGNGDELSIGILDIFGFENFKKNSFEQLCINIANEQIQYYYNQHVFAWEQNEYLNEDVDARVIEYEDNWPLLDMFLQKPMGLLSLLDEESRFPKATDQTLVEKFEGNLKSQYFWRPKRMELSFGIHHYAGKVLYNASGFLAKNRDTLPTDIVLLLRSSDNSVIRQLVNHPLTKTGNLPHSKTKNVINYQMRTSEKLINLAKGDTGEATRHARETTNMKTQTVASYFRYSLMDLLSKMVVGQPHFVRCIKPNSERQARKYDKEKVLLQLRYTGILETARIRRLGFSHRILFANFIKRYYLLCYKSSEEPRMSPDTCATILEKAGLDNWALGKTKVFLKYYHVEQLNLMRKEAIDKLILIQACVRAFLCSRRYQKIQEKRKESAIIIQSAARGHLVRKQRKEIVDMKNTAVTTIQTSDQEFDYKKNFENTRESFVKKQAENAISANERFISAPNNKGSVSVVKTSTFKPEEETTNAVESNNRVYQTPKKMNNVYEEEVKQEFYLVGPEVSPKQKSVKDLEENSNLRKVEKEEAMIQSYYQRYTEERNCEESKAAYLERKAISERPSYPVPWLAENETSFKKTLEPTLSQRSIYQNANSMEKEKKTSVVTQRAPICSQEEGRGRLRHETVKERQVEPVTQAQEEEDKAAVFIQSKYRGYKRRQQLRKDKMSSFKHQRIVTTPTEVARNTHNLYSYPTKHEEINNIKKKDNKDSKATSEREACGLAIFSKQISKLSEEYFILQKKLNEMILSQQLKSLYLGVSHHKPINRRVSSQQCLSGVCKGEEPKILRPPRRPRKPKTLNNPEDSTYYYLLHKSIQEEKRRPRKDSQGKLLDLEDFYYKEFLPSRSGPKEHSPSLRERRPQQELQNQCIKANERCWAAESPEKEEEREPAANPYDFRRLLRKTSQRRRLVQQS
Chain of UniProt P35626 (whole entry, looked up): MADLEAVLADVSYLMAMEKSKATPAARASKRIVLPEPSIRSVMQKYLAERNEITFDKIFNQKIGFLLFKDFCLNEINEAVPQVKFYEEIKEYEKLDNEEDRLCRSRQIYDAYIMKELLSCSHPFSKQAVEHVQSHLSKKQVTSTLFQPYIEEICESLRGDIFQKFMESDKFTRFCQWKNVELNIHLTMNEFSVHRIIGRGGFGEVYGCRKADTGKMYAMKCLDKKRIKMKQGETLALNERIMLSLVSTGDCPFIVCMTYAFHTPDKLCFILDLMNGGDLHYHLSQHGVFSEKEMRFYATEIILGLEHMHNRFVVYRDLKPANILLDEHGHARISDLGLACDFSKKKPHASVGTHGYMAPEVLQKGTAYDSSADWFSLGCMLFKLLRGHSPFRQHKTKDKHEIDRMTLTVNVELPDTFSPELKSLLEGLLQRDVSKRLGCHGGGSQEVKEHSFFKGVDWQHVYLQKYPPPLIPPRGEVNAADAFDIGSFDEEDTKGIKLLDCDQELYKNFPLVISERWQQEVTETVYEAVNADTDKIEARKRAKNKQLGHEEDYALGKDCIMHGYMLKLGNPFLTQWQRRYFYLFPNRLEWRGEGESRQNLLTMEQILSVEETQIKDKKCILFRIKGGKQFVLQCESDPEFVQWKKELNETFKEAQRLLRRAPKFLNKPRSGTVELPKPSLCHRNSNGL
Chain of UniProt O94804 (whole entry, looked up): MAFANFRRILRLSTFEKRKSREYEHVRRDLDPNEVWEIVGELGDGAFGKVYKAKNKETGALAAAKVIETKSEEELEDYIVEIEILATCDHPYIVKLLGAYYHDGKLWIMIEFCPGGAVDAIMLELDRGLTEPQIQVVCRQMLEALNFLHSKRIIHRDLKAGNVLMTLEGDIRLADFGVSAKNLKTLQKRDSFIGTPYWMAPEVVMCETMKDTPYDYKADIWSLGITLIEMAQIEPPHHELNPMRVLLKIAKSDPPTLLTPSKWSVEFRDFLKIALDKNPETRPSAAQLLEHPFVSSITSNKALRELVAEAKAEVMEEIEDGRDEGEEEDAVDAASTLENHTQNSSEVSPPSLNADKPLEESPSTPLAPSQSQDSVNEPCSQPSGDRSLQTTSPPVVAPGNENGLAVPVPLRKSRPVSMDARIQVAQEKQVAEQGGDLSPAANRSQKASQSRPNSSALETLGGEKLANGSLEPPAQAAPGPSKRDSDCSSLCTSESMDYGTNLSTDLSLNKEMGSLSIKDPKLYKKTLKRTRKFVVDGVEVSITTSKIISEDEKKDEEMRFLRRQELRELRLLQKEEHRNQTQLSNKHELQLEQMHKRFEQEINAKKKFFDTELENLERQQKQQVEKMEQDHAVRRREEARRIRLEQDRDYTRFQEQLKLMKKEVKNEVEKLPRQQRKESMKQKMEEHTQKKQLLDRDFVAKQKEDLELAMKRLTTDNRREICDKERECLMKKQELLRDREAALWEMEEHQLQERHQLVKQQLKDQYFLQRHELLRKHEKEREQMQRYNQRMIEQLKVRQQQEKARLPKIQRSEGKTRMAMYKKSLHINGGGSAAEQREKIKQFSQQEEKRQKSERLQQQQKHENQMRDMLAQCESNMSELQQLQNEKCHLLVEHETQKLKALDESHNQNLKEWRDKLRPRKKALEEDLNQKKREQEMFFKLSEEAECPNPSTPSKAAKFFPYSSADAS
Chain of UniProt P23443 (whole entry, looked up): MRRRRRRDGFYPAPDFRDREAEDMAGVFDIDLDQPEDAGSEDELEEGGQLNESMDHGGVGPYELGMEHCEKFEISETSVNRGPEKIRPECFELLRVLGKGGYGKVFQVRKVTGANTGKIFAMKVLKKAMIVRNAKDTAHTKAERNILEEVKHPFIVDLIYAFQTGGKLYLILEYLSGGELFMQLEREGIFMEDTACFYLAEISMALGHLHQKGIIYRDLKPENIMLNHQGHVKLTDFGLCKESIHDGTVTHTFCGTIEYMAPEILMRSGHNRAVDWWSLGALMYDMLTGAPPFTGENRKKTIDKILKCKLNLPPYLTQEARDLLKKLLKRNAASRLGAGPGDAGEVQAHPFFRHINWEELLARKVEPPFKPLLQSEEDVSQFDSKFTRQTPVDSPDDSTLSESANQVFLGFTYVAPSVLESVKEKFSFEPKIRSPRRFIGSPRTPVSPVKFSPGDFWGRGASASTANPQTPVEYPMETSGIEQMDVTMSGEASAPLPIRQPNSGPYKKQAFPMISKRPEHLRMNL

Series 1
Compound: CC(C)(O)c1cncc(-c2nc3ccc(F)cc3n2C2CC2)c1
Observed: cell-free assay
Technique: competition with immobilised ligand
Concentration: 1 µM
Quantity: remaining binding
Non-receptor tyrosine-protein kinase TYK2, JH2 (TYK2, Homo sapiens, UniProt P29597): 94%
MAPK12 (Homo sapiens, UniProt P53778): 88%
ACVR1 (Homo sapiens, UniProt Q04771): 100%
RPS6KB1 (Homo sapiens, UniProt P23443): 100%
PDPK1 (Homo sapiens, UniProt O15530): 97%
STK26 (Homo sapiens, UniProt Q9P289): 100%
MAPK15 (Homo sapiens, UniProt Q8TD08): 90%
MAP4K4 (Homo sapiens, UniProt O95819): 72%
PIK3CA (Homo sapiens, UniProt P42336): 100%
MAP3K9 (Homo sapiens, UniProt P80192): 100%
COQ8B (Homo sapiens, UniProt Q96D53): 100%
NUAK2 (Homo sapiens, UniProt Q9H093): 100%
ITK (Homo sapiens, UniProt Q08881): 100%
Myosin-IIIa (MYO3A, Homo sapiens, UniProt Q8NEV4): 100%
OXSR1 (Homo sapiens, UniProt O95747): 100%

Series 2
Compound: CC(C)n1cnc(-c2ccc(F)cc2)c1-c1ncc(C(=O)Nc2ccc(N3CCN(C)CC3)cc2)[nH]1
Technique: phase 2a trial
Host: patients with IPF
Quantity: share of patients with TEAE
dose not given, skin disorders, grade 3, pooled arms: 0%
30 mg once daily, skin and subcutaneous disorders, grade 3: 0%
30 mg once daily, skin and subcutaneous disorders, grade 4: 0%
dose not given, skin disorders, grade 5, pooled arms: 0%
dose not given, upper respiratory infection, grade 5, pooled arms: 0%
60 mg once daily, skin and subcutaneous disorders, grade 5: 0%

Series 3
SMILES: Ic1ccc(Nc2nc(NCCN3CCOCC3)nc(N3CCOCC3)n2)cc1
Baseline: vehicle
Quantity: enzyme activity
L444P/L444P Gaucher fibroblasts; 4-MUG hydrolysis in lysate; 1 µM, 72 h, without ISRIB: 120% and 130% and 124% and 111% and 112% and 115% and 116% and 113%
L444P/L444P Gaucher fibroblasts; 4-MUG hydrolysis in lysate; 10 µM, 72 h: 146% and 153% and 113% and 179% and 115% and 119%
wild-type human fibroblasts; GCase activity, 4-MUG hydrolysis lysate; 1 µM, 48 h: 108% and 110% and 116% and 115% and 98.1%
glucocerebrosidase L444P (human); 4-MUG hydrolysis in lysate; Gaucher fibroblasts L444P/L444P; 1 µM, 72 h: 169%
L444P/L444P Gaucher fibroblasts; 4-MUG hydrolysis in lysate; 0.5 µM, 72 h: 131% and 120% and 102% and 117% and 113% and 115%
L444P/L444P Gaucher fibroblasts; 4-MUG hydrolysis in lysate; 0.1 µM, 72 h: 111% and 106% and 118% and 76.9% and 89.6% and 100%

Series 4
Compound: O=C1NC(=O)C(c2c[nH]c3ccccc23)=C1c1c[nH]c2ccccc12
Observed: enzyme activity
Mode: inhibitor
Concentration: 0.5 µM
Baseline: control
Quantity: remaining activity
CAMK2D (Homo sapiens, UniProt Q13557): 65%
GRK3 (Homo sapiens, UniProt P35626): 87%
MAP3K3 (Homo sapiens, UniProt Q99759): 127%
CHEK2 (Homo sapiens, UniProt O96017): 124%
DAPK2 (Homo sapiens, UniProt Q9UIK4): 88.6%
STK39 (Homo sapiens, UniProt Q9UEW8): 93.6%
STK10 (Homo sapiens, UniProt O94804): 49.6%
CAMKK2 (Homo sapiens, UniProt Q96RR4): 92.8%
TGFBR1 (Homo sapiens, UniProt P36897): 96.6%
DAPK1 (Homo sapiens, UniProt P53355): 79.4%
IKBKB (Homo sapiens, UniProt O14920): 106%
TGFBR2 (Homo sapiens, UniProt P37173): 95.5%
STK11 (Homo sapiens, UniProt Q15831): 107%
IKBKE (Homo sapiens, UniProt Q14164): 103%

For quick reference, copied from above (series 2):
dose not given, skin disorders, grade 5, pooled arms: 0%
dose not given, upper respiratory infection, grade 5, pooled arms: 0%
60 mg once daily, skin and subcutaneous disorders, grade 5: 0%
